Experimental data of several laboratories.
Compare with care: the assays were run in different laboratories. Numbers after ± are the reported error.
Cell line: Caco-2

CC(C)NCC(O)COc1cccc2ccccc12 (centres unmarked)  mass balance (2 µM, 120 min, pH 7.4): 83.8%
CC(C)NCC(O)COc1cccc2ccccc12 (centres unmarked)  apparent permeability: 22.6 ×10⁻⁶ cm/s
O=c1c2cc(Cl)c(CO)cc2[nH]c(=S)n1Cc1cccnc1  Papp (B to A) (10 µM, 90 min, pH 7.4, 0.1% BSA receiver side): 22 ×10⁻⁶ cm/s
CCCCCCCCOC(=O)c1ccc(O)cc1  hydrolysed compound (5 µM, 60 min, A-B direction): 42.3 ± 2.3%
C[C@@H]1CCN(C(=O)CC#N)C[C@@H]1N(C)c1ncnc2[nH]ccc12  Papp B-A (5 µM, 120 min): 20.3 ×10⁻⁶ cm/s
CCOc1cc(C(C)(C)C)ccc1C1=N[C@@H](c2ccc(Cl)cc2)[C@@H](c2ccc(Cl)cc2)N1C(=O)N1CCN(CC(=O)NCCOCCOCCOCCNC(=O)CN2CCN(C(=O)N3C(c4ccc(C(C)(C)C)cc4OCC)=N[C@@H](c4ccc(Cl)cc4)[C@H]3c3ccc(Cl)cc3)CC2=O)C(=O)C1 (relative stereo)  Papp A to B (10 µM, 2 h, 37 °C): 0.06 ×10⁻⁶ cm/s
COc1ccc(NC(=O)c2ccc(-n3cc(CNc4nc(OC)nc(OC)n4)nn3)cc2)cc1  selectivity ratio (MTT; relative to: normal rat colonocytes over Caco-2): 0.26
C[C@H]1O[C@@H](O[C@H]2[C@@H](O)C[C@H](O[C@H]3[C@@H](O)C[C@H](O[C@H]4CC[C@@]5(C)[C@H](CC[C@@H]6[C@@H]5C[C@@H](O)[C@]5(C)[C@@H](C7=CC(=O)OC7)CC[C@]65O)C4)O[C@@H]3C)O[C@@H]2C)C[C@H](O)[C@@H]1O  recovery (5 µM, 2 h, basolateral to apical): 83.5%
NS(=O)(=O)c1nnc(NC(=O)CCC2CC3CCC2C3)s1 (centres unmarked)  Papp B to A: 13.2 ×10⁻⁶ cm/s
CC(C)C[C@@H]1NC(=O)CN(C)C(=O)[C@H](Cc2ccccc2)NCC2=CC=C(CNC1=O)O2  Papp: 17.7 ×10⁻⁶ cm/s
CC(=O)CC(c1ccccc1)c1c(O)c2ccccc2oc1=O (centres unmarked)  Papp A-B (10 µM, 2 h): > 1 ×10⁻⁶ cm/s
CCCCC(CC)CNC(=N)NC(=N)NCCCCCCNC(=N)NC(=N)NCC(CC)CCCC (centres unmarked)  recovery (5 µM, 2 h, apical to basolateral): < 24.4%
O=C(OCc1ccccc1)c1ccc(O)cc1  hydrolysed compound (5 µM, 60 min, A-B direction): 20.9 ± 2.6%
CCOc1cc(-c2nncn2C)ccc1Nc1ncc2cc(C)nc(NCC(C)(C)C)c2n1  Papp(B-A) (10 µM): 5.28 ×10⁻⁶ cm/s
Cc1cc(Nc2cc3ncccc3c(N[C@@H]3C[C@H]4CC[C@@H](C3)N4CCC#N)n2)n[nH]1  Papp A-B (5 µM, 120 min): 1.17 ×10⁻⁶ cm/s
NS(=O)(=O)c1nnc(NC(=O)C2CCCC3(CCCCC3)C2)s1 (centres unmarked)  Papp B to A: 1.5 ×10⁻⁶ cm/s
O=c1c2cc(Cl)ccc2[nH]c(=S)n1Cc1cccnc1  Papp (B to A) (10 µM, 90 min, pH 7.4, 0.1% BSA receiver side): 14.4 ×10⁻⁶ cm/s
COc1nc(NCc2cn(-c3ccc(C(=O)Nc4ccc([N+](=O)[O-])cc4)cc3)nn2)nc(OC)n1  selectivity ratio (MTT; relative to: normal rat colonocytes over Caco-2): 0.08
C=CC(=O)Nc1cc(Nc2nccc(-c3cn(C)c4ccccc34)n2)c(OCC(F)(F)F)nc1N(C)CCN(C)C  Papp A to B (45 µM): 0.53 ×10⁻⁶ cm/s
O=C(O)C=Cc1ccc(O)cc1  recovery (Transwell mass balance; 1 mM, time not given, basolateral to apical): 116%
COc1nc(NCc2cn(-c3ccc(NC(=O)c4ccc(Cl)cc4)cc3)nn2)nc(OC)n1  selectivity ratio (MTT; relative to: normal rat colonocytes over Caco-2): 0.02
Cc1ccc(N(c2ccc(NC(=O)CN(C)c3ccccc3N3CCCC3=O)cc2)C(C)C)cc1  apparent permeability (basolateral to apical): 2.52 ×10⁻⁶ cm/s
CC(C)C(=O)OCc1cc2[nH]c(=S)n(Cc3cccnc3)c(=O)c2cc1Cl  Papp (B to A) (10 µM, 90 min, pH 7.4, 0.1% BSA receiver side): 0.7 ×10⁻⁶ cm/s
O=C(Nc1ccc(CN2CCOCC2)c(C(F)(F)F)c1)c1ccc(C#Cc2cccc3cnccc23)cn1  recovery (5 µM, 120 min, A-to-B, apical dosing): 80.6%
CC(C)(C)OC(=O)c1ccc(O)cc1  hydrolysed compound (5 µM, 60 min, A-B direction): 1.1 ± 0.1%
Nc1n[nH]c2nc(-c3cccc(O)c3)cc(-c3cc4ccccc4nc3N3CCOCC3)c12  selectivity ratio (MTT; 72 h, 10% FBS; relative to: WI-38 EC50 over Caco-2 IC50): 0.47
COc1nc(NCc2cn(-c3ccc(NC(=O)c4ccc(Br)cc4)cc3)nn2)nc(OC)n1  selectivity ratio (MTT; relative to: normal rat colonocytes over Caco-2): 0.02
C#Cc1c(F)ccc2cc(O)cc(-c3ncc4c(N5CC6CCC(C5)N6)nc(OC[C@@]56CCCN5C[C@H](F)C6)nc4c3F)c12  Papp (A to B) (no inhibitor, P-gp (verapamil) set): < 0.479 ×10⁻⁶ cm/s
COCCc1ccc(OCC(O)CNC(C)C)cc1 (centres unmarked)  apparent permeability (apical to basolateral): 33.3 ×10⁻⁶ cm/s
C1CCc2c(c(N3CCOCC3)nc3sc4c(N5CCNCC5)nnnc4c23)C1  Papp B-A (10 µM, 120 min, pH 7.4, without inhibitor): 15.9 ×10⁻⁶ cm/s
CCCOc1nc(-c2cccc(O)c2)cc(-c2cc3ccccc3nc2N2CCOCC2)c1C#N  selectivity ratio (MTT; 72 h, 10% FBS; relative to: WI-38 EC50 over Caco-2 IC50): 0.931
CC[C@H](C)C(=O)N1CCC(NC(=O)Nc2ccc(OC(F)(F)F)c(F)c2)CC1  percent recovery (Caco-2 permeability; 10 µM, 60 min, pH 7.4 apical, 7.4 basolateral, replicate 1, added: verapamil; apical to basolateral): 46%
C[C@H]1CNCCN1c1nccc(-c2onc3c2CCC[C@@]32CCCc3sc(N)c(C#N)c32)n1  Papp (A to B): 21 ×10⁻⁶ cm/s
CC[C@@H]1C(=O)N(C)c2cnc(Nc3ccc(C(=O)NC4CCN(C)CC4)cc3OC)nc2N1C1CCCC1  recovery B-A (10 µM, 2 h): 71.6%
C[C@H]1O[C@@H](O[C@H]2[C@@H](O)C[C@H](O[C@H]3[C@@H](O)C[C@H](O[C@H]4CC[C@@]5(C)[C@H](CC[C@@H]6[C@@H]5C[C@@H](O)[C@]5(C)[C@@H](C7=CC(=O)OC7)CC[C@]65O)C4)O[C@@H]3C)O[C@@H]2C)C[C@H](O)[C@@H]1O  recovery (transwell permeability; 5 µM, 1 h): 106%
O=C(Nc1c2c(cc3c1CCC3)CCC2)NS(=O)(=O)/C=C/c1nccs1  Papp(A-B) (2 µM, 120 min, pH 7.4): 9.5 ×10⁻⁶ cm/s
COc1nc(NCc2cn(-c3ccc(C(=O)Nc4ccc(Cl)cc4)cc3)nn2)nc(OC)n1  selectivity ratio (MTT; relative to: normal rat colonocytes over Caco-2): 0.19
CCOC(=O)c1ccc(O)cc1  hydrolysed compound (5 µM, 60 min, A-B direction): 64.6 ± 6.5%

Excerpt of the above:
CC[C@H](C)C(=O)N1CCC(NC(=O)Nc2ccc(OC(F)(F)F)c(F)c2)CC1  percent recovery (Caco-2 permeability; 10 µM, 60 min, pH 7.4 apical, 7.4 basolateral, replicate 1, added: verapamil; apical to basolateral): 46%
C[C@H]1O[C@@H](O[C@H]2[C@@H](O)C[C@H](O[C@H]3[C@@H](O)C[C@H](O[C@H]4CC[C@@]5(C)[C@H](CC[C@@H]6[C@@H]5C[C@@H](O)[C@]5(C)[C@@H](C7=CC(=O)OC7)CC[C@]65O)C4)O[C@@H]3C)O[C@@H]2C)C[C@H](O)[C@@H]1O  recovery (transwell permeability; 5 µM, 1 h): 106%
Nc1n[nH]c2nc(-c3cccc(O)c3)cc(-c3cc4ccccc4nc3N3CCOCC3)c12  selectivity ratio (MTT; 72 h, 10% FBS; relative to: WI-38 EC50 over Caco-2 IC50): 0.47
Cc1ccc(N(c2ccc(NC(=O)CN(C)c3ccccc3N3CCCC3=O)cc2)C(C)C)cc1  apparent permeability (basolateral to apical): 2.52 ×10⁻⁶ cm/s
